Published values gathered from unrelated publications.
Parts stem from different laboratories: compare values within a part only. Changes are numbered by the printed parent chain.

Block 1 — effect on: peptide-MHC binding; molecule type: peptide; tested at: concentration not given
Target: HLA class I histocompatibility antigen, A alpha chain, allele A*25:01 (Homo sapiens, UniProt P04439)
Sequence | binding
YLHIHPFKI | inactive
LTDRELLLL | inactive
TQIPRQMVL | inactive
GLFWGGIWY | inactive
RVLTARKTV | inactive
FDLFGITLY | inactive
KVRDRNFQL | inactive
MAVTAAPYI | inactive

Block 2 — target: CCNB1, cyclin fold, Cln2 fusion (human); method: yeast growth competition, sequencing; matrix: yeast; setting: strong parent motif; reference: not given; direction: higher = stronger binding
Starting sequence: viral docking peptide; TSVRRALFTGGSD; partner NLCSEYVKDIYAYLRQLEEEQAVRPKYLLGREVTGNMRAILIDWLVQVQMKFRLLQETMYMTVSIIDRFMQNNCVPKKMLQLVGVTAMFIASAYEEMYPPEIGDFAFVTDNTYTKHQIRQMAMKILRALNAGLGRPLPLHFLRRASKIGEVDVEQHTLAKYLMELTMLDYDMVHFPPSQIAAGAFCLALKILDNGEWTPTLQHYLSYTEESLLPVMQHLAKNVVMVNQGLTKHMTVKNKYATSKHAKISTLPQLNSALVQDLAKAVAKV
Substitution | normalised enrichment score
G11P | 2.61
G10C | 2.02
G10A | 2.18
A6M | 0.347
S2M | 1.54
R4N | 1.54
L7A | 0.181
R4H | 0.0407

Further values, each from its own experiment — tested at: 10 µM
SMILES | tested on | effect on | time | reference | endpoint | value
Cc1cn([C@H]2C=C[C@@H](CO)O2)c(=O)[nH]c1=O | HEK-293T/ACE2 | – | 16 h | vehicle | viability | 98.3%
CCN(C(C)=O)c1cccc(-c2ccnc3c(C#N)cnn23)c1 | Sarcocystis neurona | parasite growth | – | – | inhibition | -22%
